Published values collected from several papers.
Compare with care: the assays were run in different laboratories. Numbers after ± are the reported error.

CCC(=O)N[C@@H](C)C(=O)OCC(=O)N[C@@H](C)C(=O)O  depolymerization half-life (water; pH 8, 65 °C): 52.8 min
Cn1c(=O)oc2ccc(-c3ccc(CC(C#N)NC(=O)C4CNCCCO4)c(F)c3)cc21 (centres unmarked)  bilirubin increased incidence (human; oral, 10 mg once daily, treatment-related AE, multiple ascending dose): 0%
[64Cu+2].c1ccc(CNCc2ccc(CN3CCCN4CCNCCCN(CC4)CC3)cc2)nc1  tissue uptake (CXCR4; NOD/SCID mouse, U87 and U87-stb-CXCR4 xenografts, bladder; iv, 90 min, ex vivo): 4.14 ± 4.78 %ID/g
CCCC[C@H](NC(=O)COCCOCCNC(=O)CN1CCN(CC(=O)O)CCN(CC(=O)O)CC1)C(=O)N[C@H]1CC(=O)NCCCC[C@@H](C(N)=O)NC(=O)[C@H](Cc2c[nH]c3ccccc23)NC(=O)[C@H](CCCNC(=N)N)NC(=O)[C@@H](Cc2ccccc2)NC(=O)[C@H](Cc2c[nH]cn2)NC1=O [copper-64 labelled]  tissue uptake (C57 mice, kidney; intravenous, 0.37 MBq, 0.5 h): 12.1 ± 1.51 %ID/g
[64Cu+2].c1cnc(CNCc2ccc(CN3CCCN4CCNCCCN(CC4)CC3)cc2)nc1  tissue uptake (CXCR4; NOD/SCID mouse, U87 and U87-stb-CXCR4 xenografts, spleen; iv, 450 min, ex vivo): 11 ± 1.06 %ID/g
N=C(N)NCCC[C@@H]1NC(=O)[C@H](Cc2c[nH]c3ccccc23)NC(=O)[C@@H](CC2CCCCC2)NC(=O)[C@@H]2CCCN2C(=O)[C@@H](NC(=O)CCc2ccccc2)CCCNC1=O  alpha rate constant (two-compartment model; C57BL/6J mice, plasma; subcutaneous, 1 mg/kg): 0.03 min⁻¹
Cc1cc2c(cc1C1(c3ncc(C(=O)O)cn3)CC1)C(C)(C)CCC2(C)C  HDL level (Sprague-Dawley rat, male, plasma; oral, 100 mg/kg, 9 h, sesame oil vehicle): 51 ± 3.2 mg/dL
CCC/C(=C\C1=C(C(F)(F)F)C(=O)c2ccccc2C1=O)C(=O)N(CC)CC  t1/2 (mouse plasma; 1 µM, 37 °C): 2 min
C#Cc1cccc(Nc2ncnc3cc(OC)c(OCCCN4CCOCC4)cc23)c1  half-life (metabolic stability; dog, liver microsomes; 1 µM, pH 7.4): 33.2 min
COc1cc(OC)cc(C2=C3C(C)=C(I)C(C)=[N+]3[B-](F)(F)n3c(C)c(I)c(C)c32)c1  log molar absorptivity (DMSO): 3.55 M⁻¹ cm⁻¹
CC(C)(C)c1nc(-c2cccc(NS(=O)(=O)c3c(F)cccc3F)c2F)c(-c2ccnc(N)n2)s1.Cc1[nH]c2ccccc2c1CCNCc1ccc(/C=C/C(=O)NO)cc1  phase stability time (pH 1.2, slurry): ≤ 24 h
Brc1ccc(Nc2nc(NN=Cc3c[nH]c4ccccc34)nc(N3CCOCC3)n2)cc1  CLint (mouse liver microsomes; in vivo extrapolated): 11.9 mL/min
CC12N3Cc4c(c(OCCCS(=O)(=O)[O-])c5ccccc5c4OCCCS(=O)(=O)[O-])CN1C(=O)N1CN4C(=O)N5CN6C(=O)N7Cc8c(c(OCCCS(=O)(=O)[O-])c9ccccc9c8OCCCS(=O)(=O)[O-])CN8C(=O)N(CN9C(=O)N(CN(C3=O)C12C)C4C95)C6(C)C87C.[Na+].[Na+].[Na+].[Na+] (centres unmarked)  phase solubility slope (pD 7.4, with: camptothecin): 0.1 ± 0.0051
C[C@H](CN(C)Cc1ccccc1)NC(=O)c1ccc(-c2noc(C(F)(F)[18F])n2)cc1  hippocampus-to-cerebellum ratio (PET; Sprague-Dawley rat, female, hippocampus and cerebellum; intravenous, 10 min; baseline: hippocampus SUV over cerebellum SUV): 1.5 ± 0.59
CC(=O)N[C@H](CC(=O)O)C(=O)N[C@H](Cc1c[nH]c2ccccc12)C(=O)N[C@H](Cc1ccccc1)C(=O)N[C@H](CCCCN)C(=O)N[C@H](C)C(=O)N[C@H](Cc1ccccc1)C(=O)N[C@H](Cc1ccc(O)cc1)C(=O)N[C@H](CC(=O)O)C(=O)N[C@H](CCCCN)C(=O)N[C@@H](C(=O)N[C@H](C)C(=O)N[C@H](CCC(=O)O)C(=O)N[C@H](CCCCN)C(=O)N[C@H](Cc1ccccc1)C(=O)N[C@H](CCCCN)C(=O)N[C@H](CCC(=O)O)C(=O)N[C@H](C)C(=O)N[C@H](Cc1ccccc1)C(N)=O)C(C)C  Cmax (statin-treated high-risk CHD men, plasma; oral, 300 mg daily, day 1, 0 to 2 h, mean, detected subjects only): 5.7 ng/mL
CCC1CC2C(C)=CC3C(=O)CCCC3C=CC(C)=CC2C(=O)O1 (centres unmarked)  compound remaining (metabolic stability; mouse, liver microsomes; 1 µM, 30 min, pH 7.4): 6.15%
NC[C@@H](C(=O)Nc1ccc(-c2cn[nH]c2)cc1)c1ccccc1  total eye irritation score (OECD 405 eye irritation; New Zealand White rabbit, eye; topical, 0.1%, 25 h (day 2); direction not given): 1
Oc1ccc2ccccc2c1/N=N/c1ccccc1  measured concentration (rat whole blood QC samples; 5.0 µg/L, 12 h, room temperature, short-term stability): 4.94 µg/L
CC(C)c1cnc(-c2cc(Cl)ccc2F)cc1Nc1ccncc1C(=O)NC(CO)CO  patients with treatment-related adverse event (monotherapy, refers to: nausea; human patients; oral, dose not given, grade 2, phase I A): 7.1%
C=C(c1ncc(C(=O)O)cn1)c1cc2c(cc1C)C(C)(C)CCC2(C)C  HDL level (Sprague-Dawley rat, male, plasma; oral, 100 mg/kg, 6 h, sesame oil vehicle): 52 ± 12.3 mg/dL
Cc1ccc(-c2ccc(-c3cc4sccc4o3)cn2)nc1  fluorescence lifetime (TCSPC; acetonitrile; zinc-free ligand): 1.3 ns
CCc1cc2c(N3CCN([11C](=O)c4ccc(-c5ccccc5)cc4)CC3)nc(N3CCNC(=O)C3)nc2s1  radioactivity increase (PET; Wistar rats, male, whole body; intravenous, dose not given, with: tariquidar 15 mg/kg iv, 30 min before; baseline: baseline): 2 to 3 fold
COC(=O)c1ccc2c(c1)NC(=O)/C2=C(\Nc1ccc2c(c1)CCN2C(=O)CN1CCOCC1)c1ccccc1  Tmax (cynomolgus monkey, plasma; oral, 5 mg/kg): 360 min
COc1ccc(/C=C/C2=[N+]3C(=C(C=O)c4c(C)c(Br)c(/C=C/c5ccc(OC)cc5)n4[B-]3(F)F)C(C)=C2Br)cc1  luminescence quantum yield (acetonitrile; room temperature): 2.5 ± 0.4%
OC1(C(F)(F)F)CCN(c2nc(Nc3ccnc(C(F)(F)F)c3)nc(-c3cccc(C(F)(F)F)n3)n2)C1 (centres unmarked)  unbound fraction (rat Sprague-Dawley, plasma; 0.5, 5 and 50 µM, 6 h): < 0.005
NS(=O)(=O)c1ccc(N2N=C(C(F)(F)F)CC2c2ccc(F)cc2F)cc1 (centres unmarked)  CL2/F to pyrazol metabolite (population PK model; Beagle dog; bootstrap median): 0.513 L/h
C=CC(=O)Nc1cc(Nc2nccc(-c3cn(C4CC4)c4ccccc34)n2)c(OC)cc1NC  plasma concentration (radiolabelled metabolite profiling; human male, plasma; oral, 110 mg, 48 h): 70.5 ng/g
CN=C(NC)NCCC[C@H](NC(=O)[C@@H]1CCCN1C(=O)[C@H](CCCNC(=N)N)NC(=O)CNC(=O)c1ccc2c(c1)C1(OC2=O)c2ccc(O)cc2Oc2cc(O)ccc21)C(=O)N[C@@H](C)C(=O)N[C@@H](C)C(=O)N[C@H](C(=O)N[C@@H](Cc1ccccc1)C(=O)N[C@@H](C)C(=O)N[C@@H](CCC(=O)O)C(=O)NCC(N)=O)[C@@H](C)O  t1/2 (HeLa cytosolic lysate; 1 µM, 37 °C): 8 min
CC[C@H](C)[C@H](N)C(=O)N[C@@H](CC(C)C)C(=O)N1CCC[C@H]1C(=O)N[C@@H](Cc1c[nH]c2ccccc12)C(=O)N[C@@H](CCCCN)C(=O)N[C@@H](Cc1c[nH]c2ccccc12)C(=O)N1CCC[C@H]1C(=O)N[C@@H](Cc1c[nH]c2ccccc12)C(=O)N[C@@H](Cc1c[nH]c2ccccc12)C(=O)N1CCC[C@H]1C(=O)N[C@@H](Cc1c[nH]c2ccccc12)C(=O)N[C@@H](CCCNC(=N)N)C(=O)N[C@@H](CCCNC(=N)N)C(N)=O  Trp emission maximum (fluorescence spectroscopy; DMPC/DMPG 7:3 SUVs; lipid/peptide 50:1, excitation 295 nm, with: lipid 726 µM): 346 nm
COc1ccc2ccc(C(=O)Nc3ccc(CN)cc3)c(O)c2c1  t1/2 (rat liver microsomes; 1 µM, with: NADPH): 63 min
C=C(C)C(=O)Nc1ccc(-c2c(-c3ccc(Oc4nccc(C)n4)cc3)c3c(N)ncnc3n2C)cc1  unbound fraction (Sprague-Dawley rat, plasma; 5 µM, 18 h): 0.023
CCC/C(=C\C1=C(F)C(=O)c2ccccc2C1=O)C(=O)N(CC)CC  CLint (mouse liver S9; 1 µM, phase II UGT conditions): 0.492 L/h/kg
N=C(N)NCCC[C@@H]1NC(=O)[C@H](CCCCNC(=O)CC[C@H](NC(=O)CN2CCN(CC(=O)O)CCN(CC(=O)O)CCN(CC(=O)O)CC2)C(=O)NCCCC[C@@H]2NC(=O)[C@@H](Cc3ccccc3)NC(=O)[C@H](CC(=O)O)NC(=O)CNC(=O)[C@H](CCCNC(=N)N)NC2=O)NC(=O)[C@@H](Cc2ccccc2)NC(=O)[C@H](CC(=O)O)NC(=O)CNC1=O [indium-111 labelled]  radioactivity concentration (female BALB/c nude mice, SK-RC-52 xenograft, tumour; 0.5 µg, 2 h post injection, with: excess unlabelled DOTA-E-[c(RGDfK)]2 50 µg): decreased
CCCC[C@@H]1NC(=O)[C@@H](NC(=O)[C@H](CCC(=O)O)NC(=O)CNC(=O)CN2CCN(CC(=O)O)CCN(CC(=O)O)CCN(CC(=O)O)CC2)CCCCNC(=O)C[C@@H](C(N)=O)NC(=O)[C@H](C(C)C)NC(=O)[C@@H]2CCCN2C(=O)[C@H](CCCNC(=N)N)NC(=O)CNC(=O)[C@H](Cc2c[nH]c3ccccc23)NC(=O)[C@H](CCCNC(=N)N)NC(=O)[C@@H](Cc2ccccc2)NC(=O)[C@H](Cc2c[nH]cn2)NC(=O)[C@H](CCC(=O)O)NC1=O [gallium-67 labelled]  intestine uptake (C57 mice, B16/F10 lung metastases; intravenous, 0.037 MBq, 2 h): 0.52 ± 0.18 %ID
O=C([O-])c1cccc(CN(CCN(Cc2cn(Cc3ccccc3)nn2)Cc2cccc(C(=O)[O-])n2)Cc2cn(Cc3ccccc3)nn2)n1.[177Lu+3]  radiometal bound to chelator (human serum; 1.5 h, 37 °C, with: 177Lu): 55%
[11CH3]Oc1ccc(Cc2cn[nH]c2)nc1-c1cccc([N+](=O)[O-])c1  parent fraction of radioactivity (human, arterial plasma; dose not given, 120 min): ~5%
CC(C)=CCCC(C)=CCc1cc(-c2coc3cc(OC4OC(C(=O)O)C(O)C(O)C4O)ccc3c2=O)ccc1O (centres unmarked)  substrate inhibition Ki (glucuronidation, substrate; rat liver microsomes): 8.82 ± 1.91 µM
O=C(NCCCN(CCCCN(CCCNC(=O)c1cccc(=O)n1[O-])C(=O)c1cccc(=O)n1[O-])C(=O)c1cccc(=O)n1[O-])c1cccc(=O)n1[O-].[89Zr+4]  intact complex (radio-TLC; PBS; 5 d, pH 7.4, 37 °C, with: Co^2+ 10-fold excess): 98.6 ± 2%

Some of these lines once more:
CC12N3Cc4c(c(OCCCS(=O)(=O)[O-])c5ccccc5c4OCCCS(=O)(=O)[O-])CN1C(=O)N1CN4C(=O)N5CN6C(=O)N7Cc8c(c(OCCCS(=O)(=O)[O-])c9ccccc9c8OCCCS(=O)(=O)[O-])CN8C(=O)N(CN9C(=O)N(CN(C3=O)C12C)C4C95)C6(C)C87C.[Na+].[Na+].[Na+].[Na+] (centres unmarked)  phase solubility slope (pD 7.4, with: camptothecin): 0.1 ± 0.0051
[11CH3]Oc1ccc(Cc2cn[nH]c2)nc1-c1cccc([N+](=O)[O-])c1  parent fraction of radioactivity (human, arterial plasma; dose not given, 120 min): ~5%
